{"data": "Published values pooled from the literature", "note": "A part holds a random share of what one study measured. Positions count from the first letter of the parent shown."}
{"data": "Series 1", "target": "Sal-like protein 4, full length isoform A (SALL4, Homo sapiens, UniProt Q9UJQ4, residues 1-1053)", "technique": "universal PBM", "molecule type": "double-stranded DNA, one strand shown", "sample": "in vitro", "tested at": "600 nM", "setting": "8-mer, flanks averaged, mean of replicates", "direction": "higher = stronger binding", "UniProt Q9UJQ4, sequence (whole entry, looked up)": "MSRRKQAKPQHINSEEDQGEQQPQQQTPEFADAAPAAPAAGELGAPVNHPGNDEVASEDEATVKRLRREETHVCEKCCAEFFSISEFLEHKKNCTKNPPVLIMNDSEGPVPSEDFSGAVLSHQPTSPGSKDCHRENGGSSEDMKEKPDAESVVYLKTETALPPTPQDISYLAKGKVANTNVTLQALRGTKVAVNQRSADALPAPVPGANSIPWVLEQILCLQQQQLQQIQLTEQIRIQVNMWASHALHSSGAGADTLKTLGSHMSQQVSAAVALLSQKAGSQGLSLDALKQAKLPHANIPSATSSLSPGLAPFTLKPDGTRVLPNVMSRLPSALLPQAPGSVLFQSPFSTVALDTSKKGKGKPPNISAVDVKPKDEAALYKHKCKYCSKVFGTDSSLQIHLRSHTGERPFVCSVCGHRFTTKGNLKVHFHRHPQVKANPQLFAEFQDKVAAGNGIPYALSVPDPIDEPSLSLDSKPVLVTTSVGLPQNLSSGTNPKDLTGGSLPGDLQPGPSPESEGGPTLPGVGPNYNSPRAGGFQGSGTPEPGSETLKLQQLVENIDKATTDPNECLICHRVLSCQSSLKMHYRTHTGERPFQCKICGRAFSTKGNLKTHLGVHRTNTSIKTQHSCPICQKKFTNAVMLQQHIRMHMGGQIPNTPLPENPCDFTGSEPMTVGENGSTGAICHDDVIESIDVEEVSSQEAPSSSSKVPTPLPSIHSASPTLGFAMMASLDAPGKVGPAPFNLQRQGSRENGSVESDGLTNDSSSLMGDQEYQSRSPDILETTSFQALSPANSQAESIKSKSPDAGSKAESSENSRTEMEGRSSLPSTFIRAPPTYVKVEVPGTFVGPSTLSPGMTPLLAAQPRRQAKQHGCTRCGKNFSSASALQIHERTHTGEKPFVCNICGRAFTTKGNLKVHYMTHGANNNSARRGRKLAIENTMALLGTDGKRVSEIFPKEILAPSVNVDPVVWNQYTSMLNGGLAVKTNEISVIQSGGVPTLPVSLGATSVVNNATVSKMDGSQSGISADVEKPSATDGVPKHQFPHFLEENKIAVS"}
{"Sequence": "GCGTTGCC", "E-score": -0.27}
{"Sequence": "CAAATCGG", "E-score": -0.00891}
{"Sequence": "TACCTAAA", "E-score": 0.131}
{"Sequence": "AGACCGTA", "E-score": -0.0808}
{"Sequence": "GGAAACCA", "E-score": -0.264}
{"Sequence": "ACATCGCG", "E-score": -0.27}
{"Sequence": "GGGCTGAA", "E-score": -0.239}
{"Sequence": "CATGCCGC", "E-score": -0.087}
{"Sequence": "ACTTCAGG", "E-score": 0.0385}
{"Sequence": "ACGTGAAC", "E-score": -0.183}
{"Sequence": "GGACTCCC", "E-score": -0.318}
{"Sequence": "GAGCCGTA", "E-score": -0.0357}
{"Sequence": "CTGTGACA", "E-score": -0.0889}
{"Sequence": "TAGCCCTA", "E-score": -0.0225}
{"Sequence": "ACACTCCA", "E-score": 0.0361}
{"data": "Series 2", "target": "ABI1, truncated, D143A, DHFR fusion (Arabidopsis thaliana)", "technique": "DHFR PCA, deep sequencing", "sample": "yeast", "setting": "methotrexate growth selection, single substitutions", "added": "(+)-ABA 0 µM", "relative to": "wild-type fitted maximum", "direction": "higher = stronger binding", "starting sequence": "PYL1, truncated, DHFR fusion (Arabidopsis thaliana); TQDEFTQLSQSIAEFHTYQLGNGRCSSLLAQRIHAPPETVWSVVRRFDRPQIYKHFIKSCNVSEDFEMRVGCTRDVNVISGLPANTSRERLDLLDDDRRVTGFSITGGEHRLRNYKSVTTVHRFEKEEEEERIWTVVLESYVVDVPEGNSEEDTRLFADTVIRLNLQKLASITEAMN"}
{"Substitution": "A170Y", "relative binding score": "-19.5%"}
{"Substitution": "S11Q", "relative binding score": "26.3%"}
{"Substitution": "E4P", "relative binding score": "10.2%"}
{"Substitution": "N61W", "relative binding score": "14.4%"}
{"Substitution": "E130I", "relative binding score": "9.61%"}
{"Substitution": "T119F", "relative binding score": "-12.8%"}
{"Substitution": "R113C", "relative binding score": "8.31%"}
{"Substitution": "E151T", "relative binding score": "15.9%"}
{"Substitution": "K58H", "relative binding score": "1.72%"}
{"Substitution": "T39A", "relative binding score": "16.8%"}
{"Substitution": "F124P", "relative binding score": "2.61%"}
{"Substitution": "V44L", "relative binding score": "4.35%"}
{"Substitution": "V76P", "relative binding score": "-4.68%"}
{"Substitution": "E125P", "relative binding score": "33.9%"}
{"Substitution": "R49I", "relative binding score": "-2.36%"}
{"Substitution": "K126S", "relative binding score": "58.7%"}
{"data": "Series 3", "target": "CCNE1, cyclin fold, Cln2 fusion (human)", "technique": "yeast growth competition, sequencing", "sample": "yeast", "setting": "strong parent motif", "relative to": "not given", "direction": "higher = stronger binding", "starting sequence": "BRCA2 docking peptide (human); PSIKRNLLNEFDR; partner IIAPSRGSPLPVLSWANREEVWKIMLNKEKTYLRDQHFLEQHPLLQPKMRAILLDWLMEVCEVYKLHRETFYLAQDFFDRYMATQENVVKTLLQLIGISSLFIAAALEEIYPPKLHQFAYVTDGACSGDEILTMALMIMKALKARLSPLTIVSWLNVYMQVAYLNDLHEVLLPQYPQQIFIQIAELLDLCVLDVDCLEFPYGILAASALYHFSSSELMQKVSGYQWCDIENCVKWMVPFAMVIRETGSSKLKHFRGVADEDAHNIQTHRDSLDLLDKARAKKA"}
{"Substitution": "PSGKRNLLNEFDR [I3G]", "normalised enrichment score": 1.72}
{"Substitution": "PSIKLNLLNEFDR [R5L]", "normalised enrichment score": -0.392}
{"Substitution": "PSIKRNLLCEFDR [N9C]", "normalised enrichment score": 1.53}
{"Substitution": "KSIKRNLLNEFDR [P1K]", "normalised enrichment score": 2.48}
{"Substitution": "PSPKRNLLNEFDR [I3P]", "normalised enrichment score": 1.93}
{"Substitution": "PSMKRNLLNEFDR [I3M]", "normalised enrichment score": 0.51}
{"Substitution": "PSIKRNLLNEFQR [D12Q]", "normalised enrichment score": 1.78}
{"Substitution": "PSIKRNHLNEFDR [L7H]", "normalised enrichment score": -0.345}
{"Substitution": "PSIKRNLLNDFDR [E10D]", "normalised enrichment score": 3.3}
{"Substitution": "PSEKRNLLNEFDR [I3E]", "normalised enrichment score": 0.756}
{"Substitution": "PSAKRNLLNEFDR [I3A]", "normalised enrichment score": 5.37}
{"Substitution": "PSIKRNLLNEFDQ [R13Q]", "normalised enrichment score": 2.46}
{"Substitution": "PSIKRTLLNEFDR [N6T]", "normalised enrichment score": 0.716}
{"Substitution": "PSYKRNLLNEFDR [I3Y]", "normalised enrichment score": 5.39}
{"Substitution": "PSIKTNLLNEFDR [R5T]", "normalised enrichment score": 0.449}
{"Substitution": "PLIKRNLLNEFDR [S2L]", "normalised enrichment score": 2.33}
{"Substitution": "PSIKRNLLYEFDR [N9Y]", "normalised enrichment score": 2.85}
{"Substitution": "PSIKRNLLNMFDR [E10M]", "normalised enrichment score": 0.854}
{"Substitution": "PSIKRNLLDEFDR [N9D]", "normalised enrichment score": 2.37}
{"Substitution": "PSIKRPLLNEFDR [N6P]", "normalised enrichment score": 1.12}
{"data": "Other studies, line by line"}
{"Molecule": "PhoQ, residues 284 288 289 292 302 303 SIHMAM", "target": "PhoP, residues 12 14 15 18 19 NQAHL (Escherichia coli, UniProt P23836)", "test": "Sort-seq, item: YFP reporter", "test system": "E. coli", "setting": "PhoQ-PhoP variant library, added: 10 µM Mg2+", "how to read": "relative to: high Mg2+ state, higher = stronger signaling", "quantity": "fold induction", "value": 1.37}
{"note": "Excerpt of the above (series 1):"}
{"Sequence": "TACCTAAA", "E-score": 0.131}
{"Sequence": "GGGCTGAA", "E-score": -0.239}
{"Sequence": "GGAAACCA", "E-score": -0.264}
{"Sequence": "ACGTGAAC", "E-score": -0.183}
{"Sequence": "CATGCCGC", "E-score": -0.087}
{"Sequence": "AGACCGTA", "E-score": -0.0808}
{"Sequence": "ACTTCAGG", "E-score": 0.0385}
